Assay results from different studies.
Each line is one published result; not all experiments were run side by side. ± gives the spread as reported.
Cell line: PC-3

COC(C(=NOCC(=O)Nc1ccccc1)C(O)C(C)O)C1Cc2cc3cc(OC4CC(OC5CC(O)C(O)C(C)O5)C(O)C(C)O4)c(C)c(O)c3c(O)c2C(=O)C1OC1CC(OC2CC(OC3CC(C)(O)C(O)C(C)O3)C(O)C(C)O2)C(O)C(C)O1 (centres unmarked) — GI50 (cell growth or viability; 72 h): 55 nM
COc1cc(CNC(=O)C[C@H](C)CCC=C(C)C)ccc1OCc1cn(-c2ccccc2Cl)nn1 — growth percent (SRB; 10 µM, 48 h): 49.4%
O=C(O)CCC(NP(=O)(O)OCCC[C@@H](NC(=O)CC[C@H](NC(=O)CCCCCNC(=O)c1ccc([18F])cc1)C(=O)O)C(=O)O)C(=O)O (some centres unmarked) — cell uptake (concentration not given, 1 h): 0.04 ± 0.01%
CC(=O)O[C@@H]1CC[C@@]2(C)[C@@H](CC[C@]3(C)[C@@H]2C(=O)C=C2[C@@H]4[C@@H](C)[C@H](C)CC[C@]4(C)CC[C@]23C)[C@@]1(C)C(=O)NCCNC(=O)CCCCC[P+](c1ccccc1)(c1ccccc1)c1ccccc1 — IC50 (cell growth or viability, MTT; 48 h): 21500 nM
COC(C(=NOCc1ccccc1)C(O)C(C)O)C1Cc2cc3cc(OC4CC(OC5CC(O)C(O)C(C)O5)C(O)C(C)O4)c(C)c(O)c3c(O)c2C(=O)C1OC1CC(OC2CC(OC3CC(C)(O)C(O)C(C)O3)C(O)C(C)O2)C(O)C(C)O1 (centres unmarked) — GI50 (cell growth or viability; 72 h): 120 nM
C[N+]1(CC(=O)OC2CCCCCCCCCCC2)CCCCC1 — ED90 (cell viability, CellTiter Blue; 96 h): 38600 nM
CCCCCCCCCC1N=C(N)N=C(N)N1c1ccc(Cl)cc1.Cl (racemic) — growth inhibition (concentration not given): ≤ 100%
C=C1CC(OC(=O)C(C)(O)CCl)C2C(=C)C(=O)OC2C2C1CC(O)C2(O)CCl (centres unmarked) — apoptotic cells (annexin V-FITC/PI; concentration not given, 48 h): 91.5%
COc1cc(CNC(=O)C[C@H](C)CCC=C(C)C)ccc1OCc1cn(-c2ccc(F)cc2)nn1 — growth percent (SRB; 10 µM, 48 h): 80.2%
COc1cc(/C=C/C(=O)/C=C(O)/C=C/c2ccc(OCC(=O)N3CCOCCOCCOCCOCCOCC3)c(OC)c2)ccc1OCC(=O)N1CCOCCOCCOCCOCCOCC1 — inhibition (cell growth or viability, SRB; 5 µM): 4.14%
COC(C(=NOCC(=O)Nc1cccnc1)C(O)C(C)O)C1Cc2cc3cc(OC4CC(OC5CC(O)C(O)C(C)O5)C(O)C(C)O4)c(C)c(O)c3c(O)c2C(=O)C1OC1CC(OC2CC(OC3CC(C)(O)C(O)C(C)O3)C(O)C(C)O2)C(O)C(C)O1 (centres unmarked) — GI50 (cell growth or viability; 72 h): 185 nM
CC(=O)OC[C@H]1O[C@@H](Sc2sc(C(=O)c3ccc(C)cc3)c(N)c2-c2nc3ccccc3s2)[C@H](OC(C)=O)[C@@H](OC(C)=O)[C@H]1OC(C)=O — growth (SRB; 10 µM, 48 h; relative to: untreated): 60.6%
CON=C(C(O)C(C)O)C(OC)C1Cc2cc3cc(OC4CC(OC5CC(O)C(O)C(C)O5)C(O)C(C)O4)c(C)c(O)c3c(O)c2C(=O)C1OC1CC(OC2CC(OC3CC(C)(O)C(O)C(C)O3)C(O)C(C)O2)C(O)C(C)O1 (centres unmarked) — GI50 (cell growth or viability; 72 h): 226 nM
CC(=C(c1ccc(O)cc1)c1ccc(Cl)cc1)c1ccc(Cl)cc1 — GI50 (cell growth or viability): 770 nM
CCCCCCCCCCCC(=O)N=C(N)NCCC[C@H](NC(=O)[C@H](CC(C)C)NC(=O)[C@@H](CC(C)C)NC(=O)[C@H](Cc1ccc(O)cc1)NC(=O)[C@H](CO)NC(=O)[C@H](Cc1c[nH]c2ccccc12)NC(=O)[C@H](Cc1c[nH]cn1)NC(=O)[C@@H]1CCC(=O)N1)C(=O)N1CCC[C@H]1C(=O)NCC — cell proliferation (WST-1; 50 µM, 4 days, 2D monolayer, daily dosing; relative to: control): 75%
COc1cc(CNC(=O)C[C@H](C)CCC=C(C)C)ccc1OCc1cn(-c2ccccc2[N+](=O)[O-])nn1 — growth percent (SRB; 10 µM, 48 h): 48.1%
Cc1nn(-c2ccc(S(=O)(=O)N[C@H](CO)CC(C)C)cc2)c2nn3nnnc3nc12 — mitochondrial membrane potential (MitoTracker Red; 2 µM, 24 h; relative to: untreated): 58 ± 0.58%
COC(C(=NOC(C)(C)C)C(O)C(C)O)C1Cc2cc3cc(OC4CC(OC5CC(O)C(O)C(C)O5)C(O)C(C)O4)c(C)c(O)c3c(O)c2C(=O)C1OC1CC(OC2CC(OC3CC(C)(O)C(O)C(C)O3)C(O)C(C)O2)C(O)C(C)O1 (centres unmarked) — GI50 (cell growth or viability; 72 h): 839 nM
CC1=C(C2=C(C)C(=O)c3c(cc(O)c(O)c3C(C)C)C2=O)C(=O)c2cc(O)c(O)c(C(C)C)c2C1=O (racemic) — EC50 (cell growth or viability, ATP luminescence; 72 h): 4670 nM
CC(=O)OC[C@H]1O[C@@H](Sc2sc(C(=O)c3ccc(Br)cc3)c(N)c2-c2nc3ccccc3s2)[C@H](OC(C)=O)[C@@H](OC(C)=O)[C@H]1OC(C)=O — growth (SRB; 10 µM, 48 h; relative to: untreated): 70.8%
COc1cc(CNC(=O)C[C@H](C)CCC=C(C)C)ccc1OCc1cn(-c2cccc(Cl)c2)nn1 — growth percent (SRB; 10 µM, 48 h): 76.3%
C[C@]1(CO)C2CC[C@@]3(CO3)[C@@H](/C=C/C3=CCOC3=O)[C@]2(C)CC[C@H]1O (some centres unmarked) — inhibition (cell growth or viability, MTT; 20 µM, 48 h): 0%
N=C(N)NCCC[C@@H]1NC(=O)[C@H](CCCCN)NC(=O)[C@@H](Cc2ccc(O)cc2)NC(=O)[C@H](CC(=O)O)NC(=O)CNC1=O — total growth inhibition (MTT; 48 h): > 100 µM
COc1cc(CNC(=O)C[C@H](C)CCC=C(C)C)ccc1OCc1cn(-c2cccc(C(F)(F)F)c2)nn1 — growth percent (SRB; 10 µM, 48 h): 82.5%
CCCCCCCCCCCCCCCCCC(=O)N=C(N)NCCC[C@H](NC(=O)[C@H](CC(C)C)NC(=O)[C@@H](CC(C)C)NC(=O)[C@H](Cc1ccc(O)cc1)NC(=O)[C@H](CO)NC(=O)[C@H](Cc1c[nH]c2ccccc12)NC(=O)[C@H](Cc1c[nH]cn1)NC(=O)[C@@H]1CCC(=O)N1)C(=O)N1CCC[C@H]1C(=O)NCC — cell proliferation (WST-1; 50 µM, 4 days, 2D monolayer, daily dosing; relative to: control): 98.9%
CCCC(CCC)C(=O)NCCNC(=O)[C@]1(C)[C@@H]2CC[C@]3(C)[C@H](C(=O)C=C4[C@@H]5[C@@H](C)[C@H](C)CC[C@]5(C)CC[C@]43C)[C@@]2(C)CC[C@H]1OC(C)=O — IC50 (cell growth or viability, MTT; 48 h): > 30000 nM
CC/C=C\C/C=C\C/C=C\C/C=C\C/C=C\C/C=C\CCC(=O)Nc1ccn(C2OC(CO)C(O)C2(F)F)c(=O)n1 (centres unmarked) — TGI (NCI60 screen): 27000 nM
C=C1CC[C@@H]2[C@](C)(CO)[C@H](O)CC[C@@]2(C)[C@@H]1/C=C/C1=CCOC1=O — inhibition (cell growth or viability, MTT; 20 µM, 48 h): 0%
CSc1ccc(/C=C2/C(C)=C(CC(=O)NCCN(C)C)c3cc(F)ccc32)cc1 — CC50 (cell growth or viability): 3120 nM
COc1cc(CNC(=O)C[C@H](C)CCC=C(C)C)ccc1OCc1cn(-c2ccccc2)nn1 — growth percent (SRB; 10 µM, 48 h): 83.1%
CC(C)OC1(CO)CCC2C(C)(CO)C(O)CCC2(C)C1C=CC1=CCOC1=O (centres unmarked) — inhibition (cell growth or viability, MTT; 20 µM, 48 h): 55%
COc1cc(CNC(=O)C[C@H](C)CCC=C(C)C)ccc1OCc1cn(-c2cccc([N+](=O)[O-])c2)nn1 — growth percent (SRB; 10 µM, 48 h): 75.7%
C=CCON=C(C(O)C(C)O)C(OC)C1Cc2cc3cc(OC4CC(OC5CC(O)C(O)C(C)O5)C(O)C(C)O4)c(C)c(O)c3c(O)c2C(=O)C1OC1CC(OC2CC(OC3CC(C)(O)C(O)C(C)O3)C(O)C(C)O2)C(O)C(C)O1 (centres unmarked) — GI50 (cell growth or viability; 72 h): 155 nM
CN(C)c1cccc2c(S(=O)(=O)NCCCCCC(=O)NO)cccc12 — cells in G2 phase (propidium iodide flow cytometry; 1.54 µM): 15.7%
COC(C(=NOCCCc1c[nH]c2ccccc12)C(O)C(C)O)C1Cc2cc3cc(OC4CC(OC5CC(O)C(O)C(C)O5)C(O)C(C)O4)c(C)c(O)c3c(O)c2C(=O)C1OC1CC(OC2CC(OC3CC(C)(O)C(O)C(C)O3)C(O)C(C)O2)C(O)C(C)O1 (centres unmarked) — GI50 (cell growth or viability; 72 h): 69 nM
Cc1ccc(C(C)C)cc1.O=C([N-]c1nc2ccccc2s1)c1cnccn1.[Cl-].[Ru+2] — selectivity index (cytotoxicity, MTT; relative to: KMST-6 over PC-3): > 2
CCON=C(C(O)C(C)O)C(OC)C1Cc2cc3cc(OC4CC(OC5CC(O)C(O)C(C)O5)C(O)C(C)O4)c(C)c(O)c3c(O)c2C(=O)C1OC1CC(OC2CC(OC3CC(C)(O)C(O)C(C)O3)C(O)C(C)O2)C(O)C(C)O1 (centres unmarked) — GI50 (cell growth or viability; 72 h): 114 nM
CC(C)C[C@H](NC(=O)C[C@H](O)[C@H](CC(C)C)NC(=O)[C@H](Cc1c[nH]cn1)NC(=O)CNC(=O)[C@@H](NC(=O)[C@H](C)NC(=O)[C@H](Cc1c[nH]c2ccccc12)NC(=O)[C@H](CCC(N)=O)NC(=O)[C@@H](Cc1ccccc1)NC(=O)CCOCCOCCOCCNC(=O)CN1CCN(CC(=O)O)CCN(CC(=O)O)CC1)C(C)C)C(N)=O [gallium-68 labelled] — retained radioactivity (cellular efflux; concentration not given, 60 min efflux after 1 h loading): 50%

Excerpt of the above:
COC(C(=NOCC(=O)Nc1cccnc1)C(O)C(C)O)C1Cc2cc3cc(OC4CC(OC5CC(O)C(O)C(C)O5)C(O)C(C)O4)c(C)c(O)c3c(O)c2C(=O)C1OC1CC(OC2CC(OC3CC(C)(O)C(O)C(C)O3)C(O)C(C)O2)C(O)C(C)O1 (centres unmarked) — GI50 (cell growth or viability; 72 h): 185 nM
COc1cc(CNC(=O)C[C@H](C)CCC=C(C)C)ccc1OCc1cn(-c2cccc(C(F)(F)F)c2)nn1 — growth percent (SRB; 10 µM, 48 h): 82.5%
C=CCON=C(C(O)C(C)O)C(OC)C1Cc2cc3cc(OC4CC(OC5CC(O)C(O)C(C)O5)C(O)C(C)O4)c(C)c(O)c3c(O)c2C(=O)C1OC1CC(OC2CC(OC3CC(C)(O)C(O)C(C)O3)C(O)C(C)O2)C(O)C(C)O1 (centres unmarked) — GI50 (cell growth or viability; 72 h): 155 nM
COc1cc(/C=C/C(=O)/C=C(O)/C=C/c2ccc(OCC(=O)N3CCOCCOCCOCCOCCOCC3)c(OC)c2)ccc1OCC(=O)N1CCOCCOCCOCCOCCOCC1 — inhibition (cell growth or viability, SRB; 5 µM): 4.14%
COC(C(=NOCC(=O)Nc1ccccc1)C(O)C(C)O)C1Cc2cc3cc(OC4CC(OC5CC(O)C(O)C(C)O5)C(O)C(C)O4)c(C)c(O)c3c(O)c2C(=O)C1OC1CC(OC2CC(OC3CC(C)(O)C(O)C(C)O3)C(O)C(C)O2)C(O)C(C)O1 (centres unmarked) — GI50 (cell growth or viability; 72 h): 55 nM
CC1=C(C2=C(C)C(=O)c3c(cc(O)c(O)c3C(C)C)C2=O)C(=O)c2cc(O)c(O)c(C(C)C)c2C1=O (racemic) — EC50 (cell growth or viability, ATP luminescence; 72 h): 4670 nM
